Results gathered from unrelated publications.
Parts stem from different laboratories: compare values within a part only. Changes are numbered by the printed parent chain.

Study 1 — target: ATF3, bZIP domain (human); technique: DHFR protein complementation; matrix: yeast; relative to: wild-type JUN-FOS pair; direction: higher = stronger binding
Setting: single substitutions, most at no-binding floor
Starting sequence: JUN, bZIP domain (human); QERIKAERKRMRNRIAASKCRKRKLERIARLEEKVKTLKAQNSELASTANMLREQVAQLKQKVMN; partner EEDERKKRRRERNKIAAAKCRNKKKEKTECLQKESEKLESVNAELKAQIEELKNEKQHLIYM
Substitution	binding fitness
T37I	-0.108 natural log
K36G	-0.282 natural log
L52P	-1.18 natural log
T37M	0.102 natural log
E44L	-0.169 natural log
K34Y	-0.207 natural log
R30P	-0.107 natural log
E33S	-0.302 natural log
L38F	-0.701 natural log
L31V	-0.514 natural log
L31A	-0.431 natural log
I28S	-0.293 natural log
Q41E	-0.00702 natural log
E32K	-0.206 natural log
E54D	-0.273 natural log
R53F	-0.54 natural log
L38R	-1.05 natural log
T48E	-0.0779 natural log

Study 2 — technique: DHFR PCA, deep sequencing; matrix: yeast; together with: (+)-ABA 0 µM; relative to: wild-type fitted maximum; direction: higher = stronger binding
Target: ABI1, truncated, D143A, DHFR fusion (Arabidopsis thaliana)
Setting: methotrexate growth selection, single substitutions
Starting sequence: PYL1, truncated, DHFR fusion (Arabidopsis thaliana); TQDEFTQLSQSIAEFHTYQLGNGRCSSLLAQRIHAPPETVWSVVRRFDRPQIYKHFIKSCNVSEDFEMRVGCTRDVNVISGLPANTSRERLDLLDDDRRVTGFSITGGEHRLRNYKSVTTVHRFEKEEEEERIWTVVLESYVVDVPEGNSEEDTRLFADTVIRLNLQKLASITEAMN
Substitution	relative binding score
E14V	2.61%
R98Y	-2.08%
R69A	18.9%
L138P	1.79%
S42Q	30.5%
E127A	30.9%
C60W	-6.34%
S9H	16.4%
Y115M	4.57%
L28Y	3.53%
F103T	-3.01%
E147A	11.7%
Y115G	3.96%
T86L	19.4%
L91I	18.6%
N149M	57.5%
G21V	18.4%

Study 3 — target: CCND2, cyclin fold, Cln2 fusion (human); technique: yeast growth competition, sequencing; matrix: yeast; setting: weak parent motif; relative to: not given; direction: higher = stronger binding
Starting sequence: CDC42EP1 docking peptide (human); SLVVGKLSFDSSP
Substitution	normalised enrichment score
P13A	-0.123
G5A	0.0315
S12A	0.452
V3A	0.149
S8A	0.112
V4A	0.0582

Study 4 — target: UBE2H UBC core domain (UniProt P62256); technique: yeast two-hybrid; matrix: yeast; setting: mostly zero background; relative to: not given; direction: higher = stronger interaction
UniProt P62256, sequence (whole entry, looked up): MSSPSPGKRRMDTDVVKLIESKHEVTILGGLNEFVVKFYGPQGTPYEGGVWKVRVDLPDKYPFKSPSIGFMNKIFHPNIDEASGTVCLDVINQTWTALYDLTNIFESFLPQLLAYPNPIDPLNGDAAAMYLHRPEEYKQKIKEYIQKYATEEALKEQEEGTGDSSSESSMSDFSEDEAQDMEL
B1: TRIM4 RING domain (UniProt Q9C037); chain EAEDIQEELTCPICLDYFQDPVSIECGHNFCRGCLHRNWAPGGGPFPCPECRHPSAPAALRP
B2: DTX4 RING domain (UniProt Q9Y2E6); chain QKVRHPPDEDCTICMERLTAPSGYKGPQPTVKPDLVGKLSRCGHVYHIYCLVAMYNNGNKDGSLQCPTCKTIYGVKTGTQ
B3: VPS41 RING domain (UniProt P49754); chain KGVLVDEENICESCLSPILPSDAAKPFSVVVFHCRHMFHKECLPMPSMNSAAQFCNICSAKNRGPGSAI
B4: RC3H1 RING domain (UniProt Q5TC82); chain QAPQWTDFLSCPICTQTFDETIRKPISLGCGHTVCKMCLNKLHRKACPFDQTTINTDIELL
B5: NEURL1 RING domain (UniProt O76050); chain VTPGLGQWSDECTICYEHAVDTVIYTCGHMCLCYACGLRLKKALHACCPICRRPIKDIIKT
B6: TRIML1 RING domain (UniProt Q8N9V2); chain LMENLREELTCFICLDYFSSPVTTECGHSFCLVCLLRSWEEHNTPLSCPECWRTLEGPHFQS
B7: TRIM13 RING domain (UniProt O60858); chain MELLEEDLTCPICCSLFDDPRVLPCSHNFCKKCLEGILEGSVRNSLWRPAPFKCPTCRKETSATGINS
B8: TRIM5 RING domain (UniProt Q9C035); chain ILVNVKEEVTCPICLELLTQPLSLDCGHSFCQACLTANHKKSMLDKGESSCPVCRISYQPENIRP
B9: TRIM43 RING domain (UniProt Q96BQ3); chain FSHAFQKELTCVICLNYLVDPVTICCGHSFCRPCLCLSWEEAQSPANCPACREPSPKMDFKT
Molecule	lacZ reporter activity
GAAPGPEAAECLVCSELALLVLFSPCQHRTVCEECARRMKKCIRCQVVVSKKLRPD (MIB2 RING domain (UniProt Q96AX9))	0
B1 (TRIM4 RING domain)	0
B2 (DTX4 RING domain)	0
B3 (VPS41 RING domain)	0
B4 (RC3H1 RING domain)	0
ASLPTSEEDLCPICYAHPISAVFQPCGHKSCKACINQHLMNNKDCFFCKTTIVSVEDWE (RNF123 RING domain (UniProt Q5XPI4))	0
FQGDVDEDLICPICSGVLEEPVQAPHCEHAFCNACITQWFSQQQTCPVDRSVVTVAHLRP (RNF41 RING domain (UniProt Q9H4P4))	0
QVDKAVFHMQSVKCLKCQEQKRAVLPCQHAALCELCAEGSECPICQPGRAHTLQS (UNK RING domain (UniProt Q9C0B0))	0
B5 (NEURL1 RING domain)	2580
B6 (TRIML1 RING domain)	0
DHGAVGQEMCCPICCSEYVKGEVATELPCHHYFHKPCVSIWLQKSGTCPVCRCMFPPPL (PJA1 RING domain (UniProt Q8NG27))	0
B7 (TRIM13 RING domain)	0
B8 (TRIM5 RING domain)	0
VEPSEENSKDCVVCQNGTVNWVLLPCRHTCLCDGCVKYFQQCPMCRQFVQESFALC (CGRRF1 RING domain (UniProt Q99675))	0
B9 (TRIM43 RING domain)	0

Study 5 — technique: protein binding microarray; form: double-stranded DNA, one strand shown; matrix: in vitro; concentration: not given; relative to: not given; direction: higher = stronger binding
Target: Histone acetyltransferase KAT6A, both winged helices, GST fusion (KAT6A, Homo sapiens, UniProt Q92794, residues 1-181)
Setting: 8-mer, flanks averaged, mean of 2 arrays, mostly near background
Construct (chain): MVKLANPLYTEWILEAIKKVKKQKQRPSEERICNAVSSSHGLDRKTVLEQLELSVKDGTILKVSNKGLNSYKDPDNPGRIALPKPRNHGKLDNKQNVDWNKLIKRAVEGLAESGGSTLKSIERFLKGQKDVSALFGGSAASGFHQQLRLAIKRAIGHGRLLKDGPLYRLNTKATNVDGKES
Strand	E-score
ACCCCCAT	-0.243
CGGACTCC	0.0809
CTGGCATC	-0.215
CTACCAGC	-0.174
AAAGATAC	-0.13
TATCGGGA	0.02
GGTTACAA	0.0206
ATCCAGTG	-0.0398
CCTGCGAG	0.0585
GACTCATC	-0.0834
CATCCGGC	0.143
TGGCCCCA	-0.279
AGAATCCA	-0.186
CAACGGAC	0.188
AAACTCAA	-0.0994
AATAAAGG	-0.126
CACTCGCC	0.111
GAGATCAC	-0.122
CACTGATG	-0.215
AACTCAAT	-0.184
ATTAGAAC	0.044
CATGGGTA	-0.0673
GCCTGTAA	-0.0127
CCCTGAGG	-0.126
CGAGAGAC	-0.11

Repeated from above (study 5):
Strand	E-score
ATCCAGTG	-0.0398
CGGACTCC	0.0809
AACTCAAT	-0.184
AAAGATAC	-0.13
CACTGATG	-0.215
CAACGGAC	0.188
AGAATCCA	-0.186
GACTCATC	-0.0834
GCCTGTAA	-0.0127
CACTCGCC	0.111
GGTTACAA	0.0206
